Results pooled from the literature.
Numbered parts are unrelated; each lists some results of a single study.
Sequence of UniProt P53350 (whole entry, looked up): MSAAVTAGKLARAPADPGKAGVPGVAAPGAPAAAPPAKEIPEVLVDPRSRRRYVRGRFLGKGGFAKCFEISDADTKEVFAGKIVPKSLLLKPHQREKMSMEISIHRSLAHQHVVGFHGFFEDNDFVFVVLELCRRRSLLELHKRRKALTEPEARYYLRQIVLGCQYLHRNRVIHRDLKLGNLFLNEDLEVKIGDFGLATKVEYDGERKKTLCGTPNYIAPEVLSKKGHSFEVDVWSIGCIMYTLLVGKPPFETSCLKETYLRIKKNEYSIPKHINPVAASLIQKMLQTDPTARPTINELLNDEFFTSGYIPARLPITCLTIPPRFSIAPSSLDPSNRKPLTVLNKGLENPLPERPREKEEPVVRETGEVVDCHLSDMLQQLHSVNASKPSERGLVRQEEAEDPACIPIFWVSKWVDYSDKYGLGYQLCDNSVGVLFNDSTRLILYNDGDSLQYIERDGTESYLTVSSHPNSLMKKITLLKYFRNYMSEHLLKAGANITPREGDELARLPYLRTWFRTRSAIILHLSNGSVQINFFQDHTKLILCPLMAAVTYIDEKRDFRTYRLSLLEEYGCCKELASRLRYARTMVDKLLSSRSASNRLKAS
Sequence of UniProt P50613 (whole entry, looked up): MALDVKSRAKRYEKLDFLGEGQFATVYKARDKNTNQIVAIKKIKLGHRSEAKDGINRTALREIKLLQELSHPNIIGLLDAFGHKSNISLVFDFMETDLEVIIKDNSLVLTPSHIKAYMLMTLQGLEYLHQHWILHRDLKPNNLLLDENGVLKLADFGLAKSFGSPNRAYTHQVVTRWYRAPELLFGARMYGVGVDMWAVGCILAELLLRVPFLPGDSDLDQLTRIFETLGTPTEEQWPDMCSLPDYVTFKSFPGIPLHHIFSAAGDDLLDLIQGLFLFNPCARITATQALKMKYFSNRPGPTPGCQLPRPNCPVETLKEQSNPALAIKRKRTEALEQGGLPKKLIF
Sequence of UniProt Q9BYP7 (whole entry, looked up): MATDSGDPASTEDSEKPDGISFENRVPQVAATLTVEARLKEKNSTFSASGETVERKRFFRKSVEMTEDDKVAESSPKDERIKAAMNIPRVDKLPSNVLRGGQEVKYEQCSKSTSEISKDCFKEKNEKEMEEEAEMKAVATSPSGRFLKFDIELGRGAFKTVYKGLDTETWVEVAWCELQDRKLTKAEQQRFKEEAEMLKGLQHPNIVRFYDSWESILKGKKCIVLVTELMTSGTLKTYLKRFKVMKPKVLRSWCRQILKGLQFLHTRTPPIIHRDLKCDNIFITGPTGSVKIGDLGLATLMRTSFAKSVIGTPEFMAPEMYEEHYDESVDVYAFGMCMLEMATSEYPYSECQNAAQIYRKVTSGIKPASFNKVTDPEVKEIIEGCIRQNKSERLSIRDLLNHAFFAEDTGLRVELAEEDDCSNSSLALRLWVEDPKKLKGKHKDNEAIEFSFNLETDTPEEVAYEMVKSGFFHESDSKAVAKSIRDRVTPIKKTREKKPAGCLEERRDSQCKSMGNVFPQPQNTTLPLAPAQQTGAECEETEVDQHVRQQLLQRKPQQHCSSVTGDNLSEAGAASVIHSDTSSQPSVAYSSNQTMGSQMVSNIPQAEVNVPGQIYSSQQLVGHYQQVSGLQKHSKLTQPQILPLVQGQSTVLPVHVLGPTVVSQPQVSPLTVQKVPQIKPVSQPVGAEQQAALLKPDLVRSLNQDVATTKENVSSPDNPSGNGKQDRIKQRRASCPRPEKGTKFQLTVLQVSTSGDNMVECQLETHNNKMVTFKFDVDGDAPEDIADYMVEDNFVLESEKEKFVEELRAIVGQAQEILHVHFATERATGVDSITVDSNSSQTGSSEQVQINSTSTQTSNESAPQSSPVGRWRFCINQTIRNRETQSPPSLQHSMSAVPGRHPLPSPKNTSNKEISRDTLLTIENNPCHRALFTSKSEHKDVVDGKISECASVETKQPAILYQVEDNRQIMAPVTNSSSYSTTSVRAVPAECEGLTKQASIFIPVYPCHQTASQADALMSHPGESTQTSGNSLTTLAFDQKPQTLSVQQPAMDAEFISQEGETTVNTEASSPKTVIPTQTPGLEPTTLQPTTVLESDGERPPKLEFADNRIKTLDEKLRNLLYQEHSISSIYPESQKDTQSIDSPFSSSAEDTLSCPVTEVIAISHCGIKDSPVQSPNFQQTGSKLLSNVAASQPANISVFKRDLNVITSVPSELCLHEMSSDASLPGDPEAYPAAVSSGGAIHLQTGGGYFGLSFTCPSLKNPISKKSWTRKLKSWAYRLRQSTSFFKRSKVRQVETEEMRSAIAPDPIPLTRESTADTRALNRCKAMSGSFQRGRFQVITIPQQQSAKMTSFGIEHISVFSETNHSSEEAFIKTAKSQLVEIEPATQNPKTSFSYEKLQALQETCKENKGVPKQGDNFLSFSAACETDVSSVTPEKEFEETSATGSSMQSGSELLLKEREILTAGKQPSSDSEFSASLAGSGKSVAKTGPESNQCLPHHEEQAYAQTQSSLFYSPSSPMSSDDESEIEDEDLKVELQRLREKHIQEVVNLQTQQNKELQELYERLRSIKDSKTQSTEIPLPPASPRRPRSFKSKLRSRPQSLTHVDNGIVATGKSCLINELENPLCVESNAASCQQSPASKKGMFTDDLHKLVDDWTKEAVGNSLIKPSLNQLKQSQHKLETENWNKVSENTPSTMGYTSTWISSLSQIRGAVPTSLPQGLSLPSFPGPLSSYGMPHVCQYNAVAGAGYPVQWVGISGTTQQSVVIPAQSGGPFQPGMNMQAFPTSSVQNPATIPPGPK
Sequence of UniProt O75460 (whole entry, looked up): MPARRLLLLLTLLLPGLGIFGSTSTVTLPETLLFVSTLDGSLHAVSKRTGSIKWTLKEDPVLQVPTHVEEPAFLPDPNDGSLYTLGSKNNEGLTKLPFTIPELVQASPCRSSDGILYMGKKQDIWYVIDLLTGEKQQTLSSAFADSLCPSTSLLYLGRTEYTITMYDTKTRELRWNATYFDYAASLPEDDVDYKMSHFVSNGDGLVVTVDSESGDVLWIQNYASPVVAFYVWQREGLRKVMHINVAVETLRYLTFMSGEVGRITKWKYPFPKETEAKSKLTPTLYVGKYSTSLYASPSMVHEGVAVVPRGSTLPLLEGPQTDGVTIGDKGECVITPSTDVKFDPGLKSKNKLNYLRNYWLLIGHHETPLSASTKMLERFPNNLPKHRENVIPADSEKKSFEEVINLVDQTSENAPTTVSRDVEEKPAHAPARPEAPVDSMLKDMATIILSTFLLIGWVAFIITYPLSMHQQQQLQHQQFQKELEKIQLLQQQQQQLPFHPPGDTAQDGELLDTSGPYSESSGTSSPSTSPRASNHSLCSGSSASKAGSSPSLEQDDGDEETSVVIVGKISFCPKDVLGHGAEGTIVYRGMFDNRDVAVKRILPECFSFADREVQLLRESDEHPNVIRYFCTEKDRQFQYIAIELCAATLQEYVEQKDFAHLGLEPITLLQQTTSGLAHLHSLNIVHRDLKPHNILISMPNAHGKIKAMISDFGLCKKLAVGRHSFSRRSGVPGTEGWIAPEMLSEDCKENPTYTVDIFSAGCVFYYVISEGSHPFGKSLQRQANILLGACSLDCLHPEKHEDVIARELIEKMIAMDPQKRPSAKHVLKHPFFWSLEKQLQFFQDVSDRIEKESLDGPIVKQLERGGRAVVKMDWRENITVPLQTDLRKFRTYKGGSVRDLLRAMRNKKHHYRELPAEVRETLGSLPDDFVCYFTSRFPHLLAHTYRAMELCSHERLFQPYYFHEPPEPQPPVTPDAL
Sequence of UniProt Q8N752 (whole entry, looked up): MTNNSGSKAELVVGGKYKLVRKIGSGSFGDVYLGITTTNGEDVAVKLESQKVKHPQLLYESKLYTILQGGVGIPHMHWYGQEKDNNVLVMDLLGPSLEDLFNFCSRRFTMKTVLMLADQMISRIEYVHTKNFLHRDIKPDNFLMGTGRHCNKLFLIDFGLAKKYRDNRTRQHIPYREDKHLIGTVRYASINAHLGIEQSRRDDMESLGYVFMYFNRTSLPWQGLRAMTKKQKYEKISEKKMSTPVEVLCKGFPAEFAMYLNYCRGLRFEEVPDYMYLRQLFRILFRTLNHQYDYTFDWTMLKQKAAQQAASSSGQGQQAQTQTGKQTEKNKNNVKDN

Series 1
SMILES: COc1ccc2[nH]c3c4[nH]c5ccc(OC)cc5c4c4c(c3c2c1)C(=O)NC4=O
Method: competitive binding panel
Concentration: 1 µM
Reference: vehicle
| target | remaining binding |
| --- | --- |
| Ephrin type-B receptor 1 (EPHB1, Homo sapiens, UniProt P54762) | 77% |
| RAC-beta serine/threonine-protein kinase (AKT2, Homo sapiens, UniProt P31751) | 84% |
| Serine/threonine-protein kinase tousled-like 1 (TLK1, Homo sapiens, UniProt Q9UKI8) | 100% |
| Bone morphogenetic protein receptor type-1B (BMPR1B, Homo sapiens, UniProt O00238) | 56% |
| Cyclin-dependent kinase 7 (CDK7, Homo sapiens, UniProt P50613) | 56% |
| Bone morphogenetic protein receptor type-2 (BMPR2, Homo sapiens, UniProt Q13873) | 93% |
| Serine/threonine-protein kinase SBK1 (SBK1, Homo sapiens, UniProt Q52WX2) | 95% |

Series 2
Species: mouse
Medium: microsomes or S9
Concentration: 2 µM
Time: 0.5 h
| SMILES | remaining compound |
| --- | --- |
| CCC(CO)Nc1ncc2cc3ccccc3nc2c1C#N (stereo not shown) | 13.9% |
| CS(=O)(=O)N1CCC[C@H]1C(=O)NCCCn1nnc2ccccc21 | 87.9% |
| CN(Cc1ccccc1)C(=O)c1c(OCC2CC2)cc(=O)n2c1CCOCC2 | 53.6% |
| CCOc1cc(CNCCc2nc(C)oc2C)ccc1OCC(=O)Nc1ccccc1 | 4.68% |
| OCc1onc2c1CCOC2c1ccc(Cl)cc1 (stereo not shown) | 74.8% |
| OC(CN(c1ccccc1)c1ccccc1)Cn1cnc2ccccc21 (stereo not shown) | < 1% |
| CC(C)CN(CC(C)C)C(=O)Cn1nc(C(C)(C)C)ccc1=O | 0.104% |
| COc1ncc(-c2ccc(-c3ccn[nH]3)cc2)c(OC)n1 | 28.4% |
| NC(=O)[C@@H]1C[C@@H](F)CN1Cc1cc2c(cc1Br)OCO2 | 0.102% |
| COc1cc(=O)[nH]cc1C(=O)N1CCOCC1c1ccc(F)cc1 (stereo not shown) | 71.8% |
| COc1ccc(-c2nc(-c3ccc(C)cc3)no2)c(OC)c1 | 65.6% |
| COC(=O)C1(C)Cc2ccc(Cl)cc2C(=O)O1 (stereo not shown) | 2.34% |

Series 3
Target: Serine/threonine-protein kinase TAO3 (TAOK3, Homo sapiens, UniProt Q9H2K8)
Sequence of UniProt Q9H2K8 (whole entry, looked up): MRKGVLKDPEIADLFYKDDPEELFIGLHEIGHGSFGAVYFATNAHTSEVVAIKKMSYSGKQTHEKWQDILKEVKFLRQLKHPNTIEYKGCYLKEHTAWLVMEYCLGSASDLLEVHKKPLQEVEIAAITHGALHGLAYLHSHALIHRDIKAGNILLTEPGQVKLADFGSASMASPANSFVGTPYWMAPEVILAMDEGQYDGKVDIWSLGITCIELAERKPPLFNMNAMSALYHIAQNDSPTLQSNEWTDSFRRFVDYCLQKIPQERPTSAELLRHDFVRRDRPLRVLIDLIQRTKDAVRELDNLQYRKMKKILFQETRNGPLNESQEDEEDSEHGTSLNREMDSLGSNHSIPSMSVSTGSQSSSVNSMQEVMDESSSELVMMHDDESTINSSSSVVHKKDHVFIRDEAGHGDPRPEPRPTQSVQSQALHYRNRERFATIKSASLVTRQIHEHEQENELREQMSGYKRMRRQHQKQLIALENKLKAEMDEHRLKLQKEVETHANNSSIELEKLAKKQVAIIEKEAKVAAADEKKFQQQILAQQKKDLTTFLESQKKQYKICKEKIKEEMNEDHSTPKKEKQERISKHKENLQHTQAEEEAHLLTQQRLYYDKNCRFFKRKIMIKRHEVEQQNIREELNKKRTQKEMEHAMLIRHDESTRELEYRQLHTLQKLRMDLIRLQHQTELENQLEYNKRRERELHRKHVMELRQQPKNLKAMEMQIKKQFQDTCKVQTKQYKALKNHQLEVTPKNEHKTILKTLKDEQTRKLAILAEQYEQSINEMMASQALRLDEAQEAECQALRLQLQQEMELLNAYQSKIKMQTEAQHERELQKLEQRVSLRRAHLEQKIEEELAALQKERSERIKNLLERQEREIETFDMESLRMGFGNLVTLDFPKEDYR
Observed: enzyme activity
Action: inhibitor
Concentration: 0.5 µM
Reference: control
| SMILES | remaining activity [%] |
| --- | --- |
| CCN(CC)CCNC(=O)c1c(C)[nH]c(/C=C2\C(=O)Nc3ccc(Cl)cc32)c1C | 45.5 |
| N#C/C(=C\c1ccc(O)c(O)c1)C(=O)NCc1ccccc1 | 103 |
| C[C@@H]1CCN(C(=O)CC#N)C[C@@H]1N(C)c1ncnc2[nH]ccc12 | 94.9 |
| O=C1c2ccccc2-c2n[nH]c3cccc1c23 | 84.7 |
| CN(C)C[C@H]1CCn2c(c(C3=C(c4cn(C)c5ccccc45)C(=O)NC3=O)c3ccccc32)C1 | 96.4 |
| COc1cc2ncnc(Nc3cccc(Cl)c3)c2cc1OC | 90.4 |
| COc1cc2ncnc(Nc3ccc(O)c(Br)c3)c2cc1OC | 98.8 |
| Cc1cc2ncc(-c3ccccc3)nc2cc1C | 96.2 |
| O=c1cc(-c2cccc3c2Sc2ccccc2S3)oc(N2CCOCC2)c1 | 115 |
| O=C(NC(NC(=S)Nc1ccc(F)c([N+](=O)[O-])c1)C(Cl)(Cl)Cl)C(c1ccccc1)c1ccccc1 (stereo not shown) | 121 |
| Cn1nc2c3c(cccc31)C(=O)c1ccccc1-2 | 87.6 |
| Cc1cn(-c2cc(NC(=O)c3ccc(C)c(Nc4nccc(-c5cccnc5)n4)c3)cc(C(F)(F)F)c2)cn1 | 95.9 |
| Cc1nc2cc3nc(-c4cccs4)cnc3cc2n1C | 116 |
| N#Cc1c(NC(=O)c2cccc3ccccc23)sc2c1CCCC2 | 90.2 |
| c1ccc(-c2cnc(Nc3ccc(OCCN4CCCC4)cc3)s2)cc1 | 87.4 |
| CN([C@@H](Cc1ccc(OS(=O)(=O)c2cccc3cnccc23)cc1)C(=O)N1CCN(c2ccccc2)CC1)S(=O)(=O)c1cccc2cnccc12 | 89.9 |
| O=C(Nc1cccc(Nc2nccc(Nc3cccc(C(F)(F)F)c3)n2)c1)C1CC1 | 110 |
| c1ccc(-c2[nH]ncc2-c2ccnc3ccccc23)nc1 | 92.8 |
| CCOc1nc(NC(=O)Cc2cc(OC)ccc2OC)cc(N)c1C#N | 88.6 |
| Ic1cccc(CSc2nnc(-c3ccncc3)o2)c1 | 103 |
| CCN(CC)C(=O)c1ccc(Nc2nc(OCC3CCCCC3)c3[nH]cnc3n2)cc1 | 74.2 |
| COc1cc2c(cc1OC)-c1[nH]nc(Nc3cccc(F)c3)c1C2 | 91.5 |
| O=C1C(Cl)=C(N2C(=O)CCC2=O)C(=O)c2ccccc21 | 95.3 |
| Nc1cccc(-c2cc3c(Oc4cccc(O)c4)ncnc3[nH]2)c1 | 93.5 |

Series 4
Structure (SMILES): O=C(O)c1cc(-c2ccc(C3CCNCC3)cc2)c2ccc(-c3ccc(C(F)(F)F)cc3)cc2c1
Concentration: 1 µM
| target | test | remaining binding [%] |
| --- | --- | --- |
| Serine/threonine-protein kinase WNK3 (WNK3, Homo sapiens, UniProt Q9BYP7) | cell-free assay, competition with immobilised ligand | 100 |
| Serine/threonine-protein kinase/endoribonuclease IRE1 (ERN1, Homo sapiens, UniProt O75460) | cell-free assay, competition with immobilised ligand | 100 |
| Dual specificity mitogen-activated protein kinase kinase 4 (MAP2K4, Homo sapiens, UniProt P45985) | cell-free assay, competition with immobilised ligand | 100 |
| Serine/threonine-protein kinase PLK1 (PLK1, Homo sapiens, UniProt P53350) | cell-free assay, competition with immobilised ligand | 88 |
| Mitogen-activated protein kinase kinase kinase 19 (MAP3K19, Homo sapiens, UniProt Q56UN5) | cell-free assay, competition with immobilised ligand | 100 |
| Receptor-type tyrosine-protein kinase FLT3, autoinhibited (FLT3, Homo sapiens, UniProt P36888) | cell-free assay, competition with immobilised ligand | 100 |
| Ephrin type-A receptor 7 (EPHA7, Homo sapiens, UniProt Q15375) | cell-free assay, competition with immobilised ligand | 100 |
| Glycogen synthase kinase-3 beta (GSK3B, Homo sapiens, UniProt P49841) | cell-free assay, competition with immobilised ligand | 100 |
| Epidermal growth factor receptor (EGFR, Homo sapiens, UniProt P00533, L858R) | cell-free assay, competition with immobilised ligand | 100 |
| Cyclin-dependent kinase 19 (CDK19, Homo sapiens, UniProt Q9BWU1) | competition binding | 97 |
| Non-receptor tyrosine-protein kinase TYK2, JH1 (TYK2, Homo sapiens, UniProt P29597) | cell-free assay, competition with immobilised ligand | 100 |
| Mitogen-activated protein kinase kinase kinase 6 (MAP3K6, Homo sapiens, UniProt O95382) | cell-free assay, competition with immobilised ligand | 100 |
| Receptor-type tyrosine-protein kinase FLT3 (FLT3, Homo sapiens, UniProt P36888, D835V/ITD) | cell-free assay, competition with immobilised ligand | 100 |
| Dual specificity mitogen-activated protein kinase kinase 1 (MAP2K1, Homo sapiens, UniProt Q02750) | cell-free assay, competition with immobilised ligand | 100 |
| Dual specificity protein kinase TTK (TTK, Homo sapiens, UniProt P33981) | cell-free assay, competition with immobilised ligand | 100 |
| Casein kinase I isoform alpha-like (CSNK1A1L, Homo sapiens, UniProt Q8N752) | cell-free assay, competition with immobilised ligand | 100 |
| Hepatocyte growth factor receptor (MET, Homo sapiens, UniProt P08581, M1250T) | cell-free assay, competition with immobilised ligand | 86 |
| Tyrosine-protein kinase ABL1, non-phosphorylated (ABL1, Homo sapiens, UniProt P00519, F317L) | cell-free assay, competition with immobilised ligand | 100 |
| Wee1-like protein kinase (WEE1, Homo sapiens, UniProt P30291) | cell-free assay, competition with immobilised ligand | 98 |
| Epidermal growth factor receptor (EGFR, Homo sapiens, UniProt P00533, del747-750/T751S) | cell-free assay, competition with immobilised ligand | 100 |
| Ribosomal protein S6 kinase alpha-4, N-terminal kinase domain (RPS6KA4, Homo sapiens, UniProt O75676) | cell-free assay, competition with immobilised ligand | 100 |
